Results collected from several papers.
± gives the spread as reported.
ABCG2: Broad substrate specificity ATP-binding cassette transporter ABCG2 (ABCG2, Homo sapiens, UniProt Q9UNQ0)
Sequence of UniProt Q9UNQ0 (whole entry, looked up): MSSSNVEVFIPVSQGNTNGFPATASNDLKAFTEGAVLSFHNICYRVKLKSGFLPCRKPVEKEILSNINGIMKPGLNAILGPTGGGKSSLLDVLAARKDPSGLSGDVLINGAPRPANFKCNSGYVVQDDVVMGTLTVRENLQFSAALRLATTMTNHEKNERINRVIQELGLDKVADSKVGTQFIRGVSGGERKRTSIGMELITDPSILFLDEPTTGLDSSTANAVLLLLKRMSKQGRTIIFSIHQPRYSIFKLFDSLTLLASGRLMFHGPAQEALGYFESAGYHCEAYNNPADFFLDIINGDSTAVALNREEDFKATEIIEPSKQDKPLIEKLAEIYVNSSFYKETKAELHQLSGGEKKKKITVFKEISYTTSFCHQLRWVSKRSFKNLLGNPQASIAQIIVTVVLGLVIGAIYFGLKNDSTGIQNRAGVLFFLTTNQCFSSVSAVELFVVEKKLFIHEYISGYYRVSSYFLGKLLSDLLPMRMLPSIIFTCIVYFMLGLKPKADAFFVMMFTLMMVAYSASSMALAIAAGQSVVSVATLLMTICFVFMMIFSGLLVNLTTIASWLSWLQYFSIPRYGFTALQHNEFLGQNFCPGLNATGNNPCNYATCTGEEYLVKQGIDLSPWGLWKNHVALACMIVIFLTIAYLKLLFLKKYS
1,25-dihydroxyvitamin D(3) 24-hydroxylase, mitochondrial: 1,25-dihydroxyvitamin D(3) 24-hydroxylase, mitochondrial (Rattus norvegicus, UniProt Q09128)
Sequence of UniProt Q09128 (whole entry, looked up): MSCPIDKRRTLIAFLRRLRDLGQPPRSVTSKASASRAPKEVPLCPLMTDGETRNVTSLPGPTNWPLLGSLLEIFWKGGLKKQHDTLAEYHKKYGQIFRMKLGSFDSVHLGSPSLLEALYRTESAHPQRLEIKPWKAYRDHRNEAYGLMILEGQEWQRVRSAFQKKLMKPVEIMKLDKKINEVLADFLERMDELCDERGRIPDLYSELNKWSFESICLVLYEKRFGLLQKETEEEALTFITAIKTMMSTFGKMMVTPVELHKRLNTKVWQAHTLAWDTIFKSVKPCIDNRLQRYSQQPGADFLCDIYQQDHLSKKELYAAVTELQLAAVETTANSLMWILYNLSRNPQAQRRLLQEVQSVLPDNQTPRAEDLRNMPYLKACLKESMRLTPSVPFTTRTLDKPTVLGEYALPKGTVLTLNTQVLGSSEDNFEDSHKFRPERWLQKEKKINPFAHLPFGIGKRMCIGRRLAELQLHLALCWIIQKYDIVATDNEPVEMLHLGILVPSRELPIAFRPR
ALB: Albumin (ALB, Homo sapiens, UniProt P02768)
Sequence of UniProt Q8R431 (whole entry, looked up): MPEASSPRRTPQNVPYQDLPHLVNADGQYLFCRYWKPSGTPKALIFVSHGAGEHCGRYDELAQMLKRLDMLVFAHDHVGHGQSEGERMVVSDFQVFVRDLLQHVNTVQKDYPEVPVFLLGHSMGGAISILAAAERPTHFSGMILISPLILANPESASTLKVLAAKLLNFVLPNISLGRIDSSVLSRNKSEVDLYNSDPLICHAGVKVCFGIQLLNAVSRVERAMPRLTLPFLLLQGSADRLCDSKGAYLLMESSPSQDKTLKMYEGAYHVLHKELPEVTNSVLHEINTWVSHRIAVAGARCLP
Sequence of UniProt P45748 (whole entry, looked up): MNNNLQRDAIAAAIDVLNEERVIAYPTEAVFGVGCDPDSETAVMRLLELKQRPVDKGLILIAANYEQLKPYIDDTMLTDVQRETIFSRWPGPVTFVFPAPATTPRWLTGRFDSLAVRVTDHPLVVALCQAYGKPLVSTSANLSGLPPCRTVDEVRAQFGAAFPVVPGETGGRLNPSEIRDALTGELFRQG
Sequence of UniProt P15144 (whole entry, looked up): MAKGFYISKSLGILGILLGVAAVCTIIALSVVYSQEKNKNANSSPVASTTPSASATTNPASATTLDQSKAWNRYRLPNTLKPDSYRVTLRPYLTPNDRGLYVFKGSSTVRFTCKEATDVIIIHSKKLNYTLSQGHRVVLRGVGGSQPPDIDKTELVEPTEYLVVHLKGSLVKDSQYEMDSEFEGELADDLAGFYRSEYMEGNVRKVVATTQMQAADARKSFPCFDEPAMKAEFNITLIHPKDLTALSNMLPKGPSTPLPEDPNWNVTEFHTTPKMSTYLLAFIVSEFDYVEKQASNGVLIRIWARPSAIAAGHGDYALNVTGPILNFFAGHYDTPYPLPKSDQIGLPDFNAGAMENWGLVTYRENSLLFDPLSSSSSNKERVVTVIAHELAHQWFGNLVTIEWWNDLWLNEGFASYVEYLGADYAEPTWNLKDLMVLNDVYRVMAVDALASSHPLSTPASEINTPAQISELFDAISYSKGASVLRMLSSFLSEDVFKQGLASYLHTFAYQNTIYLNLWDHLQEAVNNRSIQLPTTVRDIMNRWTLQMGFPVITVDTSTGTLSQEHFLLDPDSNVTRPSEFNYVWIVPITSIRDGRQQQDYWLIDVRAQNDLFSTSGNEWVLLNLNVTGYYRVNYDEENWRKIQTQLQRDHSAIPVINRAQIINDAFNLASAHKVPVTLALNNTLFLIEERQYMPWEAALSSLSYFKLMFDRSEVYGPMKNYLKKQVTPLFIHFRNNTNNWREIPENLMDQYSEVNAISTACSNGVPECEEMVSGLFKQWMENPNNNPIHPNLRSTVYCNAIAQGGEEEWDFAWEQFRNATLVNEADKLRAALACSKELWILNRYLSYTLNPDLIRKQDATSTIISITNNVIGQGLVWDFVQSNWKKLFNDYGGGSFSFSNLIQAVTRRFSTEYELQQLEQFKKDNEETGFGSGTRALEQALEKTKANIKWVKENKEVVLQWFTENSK
Sequence of UniProt P16257 (whole entry, looked up): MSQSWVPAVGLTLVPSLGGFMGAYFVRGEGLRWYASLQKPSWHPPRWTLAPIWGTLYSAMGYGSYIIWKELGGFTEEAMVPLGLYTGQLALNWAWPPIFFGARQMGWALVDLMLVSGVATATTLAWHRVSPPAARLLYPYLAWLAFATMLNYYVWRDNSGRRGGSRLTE
Sequence of UniProt P08684 (whole entry, looked up): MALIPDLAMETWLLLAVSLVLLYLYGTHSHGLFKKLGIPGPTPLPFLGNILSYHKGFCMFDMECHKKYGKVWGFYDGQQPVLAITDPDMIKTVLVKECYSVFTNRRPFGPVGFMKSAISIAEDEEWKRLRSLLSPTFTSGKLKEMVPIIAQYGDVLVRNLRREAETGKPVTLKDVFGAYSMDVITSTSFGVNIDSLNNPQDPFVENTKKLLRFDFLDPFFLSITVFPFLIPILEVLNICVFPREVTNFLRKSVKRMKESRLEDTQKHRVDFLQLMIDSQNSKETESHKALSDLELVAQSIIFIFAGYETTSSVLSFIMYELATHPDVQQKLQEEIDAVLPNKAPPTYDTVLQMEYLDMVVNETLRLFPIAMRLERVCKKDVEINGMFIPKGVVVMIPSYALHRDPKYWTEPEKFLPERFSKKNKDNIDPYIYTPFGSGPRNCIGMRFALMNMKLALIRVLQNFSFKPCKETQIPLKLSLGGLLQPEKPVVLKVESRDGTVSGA
Sequence of UniProt P04800 (whole entry, looked up): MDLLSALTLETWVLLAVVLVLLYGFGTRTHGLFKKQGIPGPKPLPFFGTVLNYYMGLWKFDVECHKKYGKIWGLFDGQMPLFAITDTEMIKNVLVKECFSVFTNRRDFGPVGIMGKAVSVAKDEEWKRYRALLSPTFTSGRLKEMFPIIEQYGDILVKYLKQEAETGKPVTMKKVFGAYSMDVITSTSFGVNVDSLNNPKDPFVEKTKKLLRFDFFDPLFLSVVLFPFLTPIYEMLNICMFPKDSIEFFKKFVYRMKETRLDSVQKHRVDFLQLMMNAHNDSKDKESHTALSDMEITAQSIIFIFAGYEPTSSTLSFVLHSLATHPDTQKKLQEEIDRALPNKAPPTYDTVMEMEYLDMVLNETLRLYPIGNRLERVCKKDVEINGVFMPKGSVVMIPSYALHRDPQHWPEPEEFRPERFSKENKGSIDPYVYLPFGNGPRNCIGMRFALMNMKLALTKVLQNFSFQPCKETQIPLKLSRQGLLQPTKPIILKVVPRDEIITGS

O=C(O)C1OC(Oc2c(-c3ccccc3O)oc3ccccc3c2=O)C(O)C(O)C1O (centres unmarked)
log CLint (ABCG2; substrate, glucuronide efflux; HeLa-UGT1A9 cells): 0.44

C[C@@H](O)[C@H](NC(=O)OP(=O)(O)OC[C@H]1O[C@@H](n2cnc3c(N)ncnc32)[C@H](O)[C@@H]1O)C(=O)O
half-life (Threonylcarbamoyl-AMP synthase (tsaC, Escherichia coli, UniProt P45748); HPLC; HEPES buffer; pH 7.5, 37 °C, bound in complex with target, with: TsaC): 2.67 h

[64Cu+2].c1ccc(CNCc2ccc(CN3CCCN4CCNCCCN(CC4)CC3)cc2)nc1
tissue uptake (CXCR4; NOD/SCID mouse, U87 and U87-stb-CXCR4 xenografts, bladder; iv, 120 min, ex vivo): 1.81 ± 0.57 %ID/g

CCCCOc1ccc(/C=C/C(=O)c2ccc3c(c2)OCO3)cc1
inhibition (ABCG2; mitoxantrone efflux, flow cytometry; HEK293 transfected with ABCG2; 5 µM, 30 min, with: mitoxantrone; relative to: 5 µM GF120918 as 100%): 33.3 ± 4%

[64Cu+2].c1cnc(CNCc2ccc(CN3CCCN4CCNCCCN(CC4)CC3)cc2)nc1
tissue uptake (CXCR4; NOD/SCID mouse, U87 and U87-stb-CXCR4 xenografts, kidney; iv, 90 min, ex vivo, with: AMD3465 25 mg/kg sc before tracer): 32.5 ± 8.75 %ID/g

CCCC[C@H](NC(=O)COCCOCCNC(=O)CN1CCN(CC(=O)O)CCN(CC(=O)O)CC1)C(=O)N[C@H]1CC(=O)NCCCC[C@@H](C(N)=O)NC(=O)[C@H](Cc2c[nH]c3ccccc23)NC(=O)[C@H](CCCNC(=N)N)NC(=O)[C@@H](Cc2ccccc2)NC(=O)[C@H](Cc2c[nH]cn2)NC1=O [copper-64 labelled]
tissue uptake (C57 mice, tumor; intravenous, 0.37 MBq, 24 h): 8.78 ± 2.29 %ID/g

C=C1CCC(O)CC1=CC=C1CCCC2(C)C1CCC2C(C)(C)O (centres unmarked)
number of products (1,25-dihydroxyvitamin D(3) 24-hydroxylase, mitochondrial; substrate; phospholipid vesicles; 1 h, 0.025 mol per mol phospholipid, 1 µM enzyme): 2

Cc1cc(C)c(-c2cc(C)c(OP(=O)([O-])OCCC[C@H](C(=O)[O-])N3CCN(CC(=O)[O-])CCN(Cc4ccccc4[O-])CCN(CC(=O)[O-])CC3)cc2C)c(C)c1.[Gd+3]
ZFS modulation correlation time (ALB; variable temperature NMRD; HSA-bound complex): 26 ps

Cc1ccc(/C=C/C(=O)c2ccc3ccccc3c2)o1
inhibition (ABCG2; mitoxantrone efflux, flow cytometry; HEK293 transfected with ABCG2; 5 µM, 30 min, with: mitoxantrone; relative to: 5 µM GF120918 as 100%): 23.2 ± 7.7%

Cc1cc(C)c(-c2cc(C)c(OP(=O)([O-])OCCC[C@H](C(=O)[O-])N3CCN(CC(=O)[O-])CCN(C(C(=O)[O-])C(=O)[O-])CCN(CC(=O)[O-])CC3)cc2C)c(C)c1.[Gd+3]
relaxivity r1 (ALB; binding; human serum albumin solution; 0.67 mM HSA, pH 7.4, 37 °C, 1.4 T, 60 MHz): 32.6 mM⁻¹ s⁻¹

O=C(/C=C/c1ccc([N+](=O)[O-])cc1)c1ccc2c(c1)OCO2
inhibition (ABCG2; mitoxantrone efflux, flow cytometry; HEK293 transfected with ABCG2; 5 µM, 30 min, with: mitoxantrone; relative to: 5 µM GF120918 as 100%): 13.2 ± 5.2%

CCc1cc(C)nc2c(CC(=O)N(CC)CC)c(-c3ccc(OCC[18F])cc3)nn12
K1/k2 ratio (Translocator protein (Tspo, Rattus norvegicus, UniProt P16257); two-tissue compartment model; rat C6 glioma model, tumor; 60 min dynamic PET): 0.55 mL/cm3

O=C(/C=C/c1ccc2ccccc2c1)c1ccc2c(c1)OCO2
inhibition (ABCG2; mitoxantrone efflux, flow cytometry; HEK293 transfected with ABCG2; 5 µM, 30 min, with: mitoxantrone; relative to: 5 µM GF120918 as 100%): 8.3 ± 8.1%

CN1CC(=O)N[C@@H](CCCNC(=N)N)C(=O)NCC(=O)N[C@@H](CS)C(=O)NCC(=O)N[C@@H](CC(N)=O)C1=O
peptide cleavage (Aminopeptidase N (ANPEP, Homo sapiens, UniProt P15144); substrate, mass spectrometry; 40 min): no effect

O=C(O)C1OC(Oc2c(-c3ccccc3)oc3ccc(O)cc3c2=O)C(O)C(O)C1O (centres unmarked)
Km (ABCG2; glucuronide efflux, substrate; HeLa cells expressing UGT1A9): 31.9 ± 7.1 µM

COc1ccc(/C=C/C(=O)c2ccc3ccccc3c2)cc1
inhibition (ABCG2; mitoxantrone efflux, flow cytometry; HEK293 transfected with ABCG2; 5 µM, 30 min, with: mitoxantrone; relative to: 5 µM GF120918 as 100%): 49.7 ± 1.5%

O=C(O)C1OC(Oc2ccc(-c3cc(=O)c4ccccc4o3)cc2)C(O)C(O)C1O (centres unmarked)
Km (ABCG2; substrate, vesicular transport; BCRP membrane vesicles): 15.4 µM

COc1cc(-c2nc3ccccc3s2)cc(CN2Cc3cccc(n3)CN(CC(=O)O)Cc3cccc(n3)C2)c1O
stability constant (Cu2+ complex [ML]+; UV-vis titration; room temperature): 30.1 log K

COc1ccc(OC)c(/C=C/C(=O)c2ccc3c(c2)OCO3)c1
inhibition (ABCG2; mitoxantrone efflux, flow cytometry; HEK293 transfected with ABCG2; 5 µM, 30 min, with: mitoxantrone; relative to: 5 µM GF120918 as 100%): 79.5 ± 5.7%

Cc1cc(C)c(-c2cc(C)c(OP(=O)([O-])OCCC[C@H](C(=O)[O-])N3CCN(CC(=O)[O-])CCN(Cc4cc([N+](=O)[O-])ccc4[O-])CCN(CC(=O)[O-])CC3)cc2C)c(C)c1.[Gd+3]
rotational correlation time (ALB; albumin binding, variable temperature NMRD fit; albumin-bound complex; 0.1 mM, pH 7.4, fit 5-35 °C data, with: HSA 0.66 mM): 11 ns

Cc1sc2c(c1C)C(c1ccc(Cl)cc1)=N[C@@H](CC(=O)NCCOCCOCCNC(=O)C(c1ccc(CNc3cccc4c3CN(C3CCC(=O)NC3=O)C4=O)cc1)N1CCOCC1)c1nnc(C)n1-2 (some centres unmarked)
HSA binding (ALB; HPLC, immobilised HSA column; concentration not given): 90%

[11CH3]Oc1ccc(C(=O)Nc2c(-c3cccs3)nc3ccccn23)cc1
total distribution volume (δ-containing GABAA receptor; pig (female Landrace × Yorkshire × Duroc), hippocampus; intravenous bolus, dose not given; relative to: baseline): 3.8 mL/cm³

Cc1cn(-c2cc(NC(=O)c3ccc(C)c(Nc4ncccn4)c3)cc(C(F)(F)F)c2)cn1
IC20 (ABCG2; MCF7-FLV1000, overexpressing; with: mitoxantrone 5 µM): 1.01 µM

O=C(O)C1OC(Oc2ccc3oc(-c4ccccc4)cc(=O)c3c2)C(O)C(O)C1O (centres unmarked)
Km (ABCG2; substrate, vesicular transport; BCRP membrane vesicles): 23.4 µM

Cc1sc2c(c1C)C(c1ccc(Cl)cc1)=N[C@@H](CC(=O)NCCOCCOCCOCCNC(=O)C(c1ccc(CNc3cccc4c3CN(C3CCC(=O)NC3=O)C4=O)cc1)N1CCOCC1)c1nnc(C)n1-2 (some centres unmarked)
HSA binding (ALB; HPLC, immobilised HSA column; concentration not given): 90%

Cc1cc(C)c(-c2cc(C)c(OP(=O)([O-])OCCC[C@H](C(=O)[O-])N3CCN(CC(=O)[O-])CCN(CC(=O)NCCC(=O)[O-])CCN(CC(=O)[O-])CC3)cc2C)c(C)c1.[Gd+3]
water residency time (ALB; albumin binding, variable temperature NMRD fit; albumin-bound complex; 0.1 mM, pH 7.4, 37 °C, fit 5-35 °C data, with: HSA 0.66 mM): 579 ns

O=C(O)C1OC(Oc2c(-c3cccc(O)c3)oc3ccccc3c2=O)C(O)C(O)C1O (centres unmarked)
Vmax (ABCG2; substrate, glucuronide efflux; HeLa-UGT1A9 cells): 183 ± 12.6 pmol/mg/min

NS(=O)(=O)Nc1ncnc(OCCOc2ncc(Br)cn2)c1-c1ccc(Br)cc1
contribution to total CLint (Cytochrome P450 3A1 (Cyp3a1, Rattus norvegicus, UniProt P04800); metabolite formation; female rat, recombinant enzyme; scaled by relative mRNA abundance): 73%

O=C(O[C@H](CO)C(F)(F)F)N1C[C@@H]2[C@H](C1)[C@H]2c1ccn(-c2ccc([18F])nc2)n1
maximum brain uptake (Monoglyceride lipase (Rattus norvegicus, UniProt Q8R431); PET; Sprague-Dawley rats, whole brain; iv): 1.3 SUV

O=C(O)C1OC(Oc2ccccc2-c2cc(=O)c3ccccc3o2)C(O)C(O)C1O (centres unmarked)
Km (ABCG2; efflux of glucuronide, substrate; HeLa-UGT1A9): 5.4 µM

O=C(/C=C/c1ccccc1F)c1ccc2ccccc2c1
inhibition (ABCG2; mitoxantrone efflux, flow cytometry; HEK293 transfected with ABCG2; 5 µM, 30 min, with: mitoxantrone; relative to: 5 µM GF120918 as 100%): 29 ± 11%

Cc1cc(C)c(-c2cc(C)c(OP(=O)([O-])OCCC[C@H](C(=O)[O-])N3CCN(CC(=O)[O-])CCN(CC(=O)NCC(=O)[O-])CCN(CC(=O)[O-])CC3)cc2C)c(C)c1.[Gd+3]
rotational correlation time (ALB; albumin binding, variable temperature NMRD fit; albumin-bound complex; 0.1 mM, pH 7.4, fit 5-35 °C data, with: HSA 0.66 mM): 7.6 ns

COc1cc(-c2nc3ccccc3s2)cc(CN2Cc3cccc(n3)CN(C)Cc3cccc(n3)C2)c1O
stability constant (Cu2+ complex [MHL]+; UV-vis titration; room temperature): 4.01 log K

O=C(O)C1OC(Oc2ccc3c(=O)cc(-c4ccccc4)oc3c2)C(O)C(O)C1O (centres unmarked)
Vmax (ABCG2; substrate, glucuronide efflux; HeLa-UGT1A9 cells): 303 ± 8.6 pmol/mg/min

C=CC(=O)Nc1cc(Nc2nccc(-c3cn(C)c4ccccc34)n2)c(OCC(F)(F)F)nc1N(C)CCN(C)C
activity vs control (Cytochrome P450 3A4 (CYP3A4, Homo sapiens, UniProt P08684); enzyme activity, inhibitor; human, liver microsomes; 33.3 µM, testosterone probe): 82.8%

O=C(/C=C/c1cccc2ccccc12)c1ccc2ccccc2c1
inhibition (ABCG2; mitoxantrone efflux, flow cytometry; HEK293 transfected with ABCG2; 5 µM, 30 min, with: mitoxantrone; relative to: 5 µM GF120918 as 100%): 31.8 ± 5.3%

CC(=O)N[C@H](C(=O)N[C@H](C(=O)N[C@@H](CCCNC(=N)N)C(=O)N1Cc2ccccc2C[C@H]1C(=O)N[C@@H](Cc1ccccc1)C(N)=O)C1CCCCC1)C(C)C
cytokine level (human PBMC; Bio-Plex multiplex, item: RANTES; 250 µg/mL, 24 h): 549 ± 459 pg/mL

NS(=O)(=O)c1ccc(NC(=O)NN[C@@H]2O[C@H](CO)[C@@H](O)[C@H](O)[C@H]2O)cc1
hemolysis (rabbit erythrocytes; 64 µg/mL, 3 h; relative to: complete lysis): 0%

O=C(O)C1OC(Oc2cccc(-c3cc(=O)c4ccccc4o3)c2)C(O)C(O)C1O (centres unmarked)
Km (ABCG2; glucuronide efflux, substrate; HeLa cells expressing UGT1A9): 5.6 ± 2.8 µM

C=C1CCC(O)CC1=CC=C1CCCC2(C)C1CCC2C(C)(O)CCCCCC (centres unmarked)
number of products (1,25-dihydroxyvitamin D(3) 24-hydroxylase, mitochondrial; substrate; phospholipid vesicles; 1 h, 0.025 mol per mol phospholipid, 1 µM enzyme): 2

CC[C@H]1[C@@H](O)[C@@H]2[C@H](CC[C@]3(C)[C@@H]([C@H](C)CCOS(=O)(=O)[O-])CC[C@@H]23)[C@@]2(C)CC[C@@H](O)C[C@@H]12.[Na+]
plasma triglycerides (ob/ob NASH mice, plasma; oral, 3 mg/kg once daily, 8 wk): 0.6 mmol/L

For quick reference, copied from above:
O=C(/C=C/c1cccc2ccccc12)c1ccc2ccccc2c1
inhibition (ABCG2; mitoxantrone efflux, flow cytometry; HEK293 transfected with ABCG2; 5 µM, 30 min, with: mitoxantrone; relative to: 5 µM GF120918 as 100%): 31.8 ± 5.3%

O=C(O[C@H](CO)C(F)(F)F)N1C[C@@H]2[C@H](C1)[C@H]2c1ccn(-c2ccc([18F])nc2)n1
maximum brain uptake (Monoglyceride lipase (Rattus norvegicus, UniProt Q8R431); PET; Sprague-Dawley rats, whole brain; iv): 1.3 SUV

C[C@@H](O)[C@H](NC(=O)OP(=O)(O)OC[C@H]1O[C@@H](n2cnc3c(N)ncnc32)[C@H](O)[C@@H]1O)C(=O)O
half-life (Threonylcarbamoyl-AMP synthase (tsaC, Escherichia coli, UniProt P45748); HPLC; HEPES buffer; pH 7.5, 37 °C, bound in complex with target, with: TsaC): 2.67 h

[11CH3]Oc1ccc(C(=O)Nc2c(-c3cccs3)nc3ccccn23)cc1
total distribution volume (δ-containing GABAA receptor; pig (female Landrace × Yorkshire × Duroc), hippocampus; intravenous bolus, dose not given; relative to: baseline): 3.8 mL/cm³
